Assay results from different studies.
Compare with care: the assays were run in different laboratories. ± marks the error that the study gave.
gag-pol integrase: Gag-Pol polyprotein, integrase (gag-pol, Human immunodeficiency virus type 1 group M subtype B, UniProt P04585)
F fusion protein: Fusion glycoprotein F0, fusion protein (F, Parainfluenza virus 5, UniProt P04849)
UniProt P32300, sequence (whole entry, looked up): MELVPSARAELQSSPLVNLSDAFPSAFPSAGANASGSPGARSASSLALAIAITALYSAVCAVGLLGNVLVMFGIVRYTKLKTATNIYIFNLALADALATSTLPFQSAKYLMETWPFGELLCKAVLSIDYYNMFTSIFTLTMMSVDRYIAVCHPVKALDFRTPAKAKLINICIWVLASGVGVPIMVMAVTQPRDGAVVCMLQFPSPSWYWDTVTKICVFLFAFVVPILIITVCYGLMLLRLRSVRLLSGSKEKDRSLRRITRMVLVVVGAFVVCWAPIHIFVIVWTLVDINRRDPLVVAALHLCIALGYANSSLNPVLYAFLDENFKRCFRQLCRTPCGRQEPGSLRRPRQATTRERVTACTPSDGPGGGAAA
UniProt P16390, sequence (whole entry, looked up): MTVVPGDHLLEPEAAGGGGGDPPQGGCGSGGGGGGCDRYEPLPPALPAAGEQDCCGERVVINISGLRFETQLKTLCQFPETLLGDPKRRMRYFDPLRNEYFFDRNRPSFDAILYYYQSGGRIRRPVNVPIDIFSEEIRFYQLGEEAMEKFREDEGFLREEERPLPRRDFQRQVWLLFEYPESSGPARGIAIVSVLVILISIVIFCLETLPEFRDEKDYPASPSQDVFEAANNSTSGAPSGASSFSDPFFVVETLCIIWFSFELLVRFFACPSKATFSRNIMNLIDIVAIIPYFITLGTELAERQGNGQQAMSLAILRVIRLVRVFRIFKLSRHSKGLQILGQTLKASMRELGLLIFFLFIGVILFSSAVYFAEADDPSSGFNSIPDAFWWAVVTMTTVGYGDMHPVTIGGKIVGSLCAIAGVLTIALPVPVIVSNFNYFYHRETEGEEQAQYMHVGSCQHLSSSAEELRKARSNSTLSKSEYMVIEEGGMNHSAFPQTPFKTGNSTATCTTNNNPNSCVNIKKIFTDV

CC[C@H](C)[C@H](NC(=O)CNC(=O)[C@H](Cc1c[nH]c2ccccc12)NC(=O)[C@@H](NC(=O)[C@@H](NC(=O)[C@H](CC(C)C)NC(=O)[C@H](CCC(N)=O)NC(=O)[C@H](CC(C)C)NC(=O)[C@H](C)NC(=O)[C@H](Cc1c[nH]cn1)NC(=O)[C@H](CCC(N)=O)NC(=O)[C@H](CCC(N)=O)NC(=O)[C@H](C)NC(=O)[C@H](CCC(=O)O)NC(=O)[C@@H](NC(=O)[C@H](C)NC(=O)[C@H](CCCNC(=N)N)NC(=O)[C@H](CC(C)C)NC(=O)[C@@H](NC(=O)[C@H](CC(N)=O)NC(=O)[C@H](CC(N)=O)NC(=O)[C@@H](NC(=O)[C@H](CCC(N)=O)NC(=O)[C@H](CCC(=O)O)NC(=O)[C@@H](NC(=O)[C@@H](NC(=O)[C@H](CCCCN)NC(=O)[C@H](CO)NC(=O)[C@@H](NC(=O)[C@H](CC(C)C)NC(=O)[C@H](CCC(=O)O)NC(=O)[C@H](CCCNC(=N)N)NC(=O)[C@@H](NC(=O)[C@@H](N)CCC(N)=O)[C@@H](C)CC)[C@@H](C)CC)[C@@H](C)CC)C(C)C)[C@@H](C)CC)[C@@H](C)CC)[C@@H](C)CC)[C@@H](C)O)C(C)C)C(=O)N[C@@H](CCCCN)C(=O)N[C@@H](CCC(N)=O)C(=O)N[C@@H](CC(C)C)C(=O)N[C@@H](CCC(N)=O)C(=O)N[C@@H](C)C(=O)N[C@@H](CCCNC(=N)N)C(=O)N[C@H](C(=O)N[C@@H](CC(C)C)C(=O)N[C@@H](C)C(=O)N[C@H](C(=O)N[C@@H](CCC(=O)O)C(=O)N[C@@H](CCCNC(=N)N)C(=O)N[C@@H](Cc1ccc(O)cc1)C(=O)N[C@@H](CC(C)C)C(=O)N[C@@H](CCCCN)C(=O)N[C@@H](CC(=O)O)C(=O)N[C@@H](CCC(N)=O)C(N)=O)C(C)C)[C@@H](C)CC — IC50 (HIV-1 gp41 5-helix; D5 antibody binding, FRET competition): > 300 nM
CC[C@H](C)[C@@H]1NC(=O)[C@H](C)NC(=O)[C@@H](NC(C)=O)CCCC=CCCC[C@@H](C(=O)N[C@H](C(=O)N[C@@H](CC(C)C)C(=O)N[C@@H](CCC(N)=O)C(=O)N[C@@H](CCC(N)=O)C(=O)N[C@@H](CC(C)C)C(=O)N[C@@H](CC(C)C)C(=O)N[C@@H](Cc2ccccc2)C(=O)N[C@H](C(=O)N[C@@H](Cc2c[nH]cn2)C(=O)N[C@@H](Cc2ccccc2)C(=O)N[C@@H](CCCNC(=N)N)C(=O)N[C@H](C(=O)NCC(N)=O)[C@@H](C)CC)[C@@H](C)CC)[C@@H](C)CC)NC(=O)[C@H]([C@@H](C)CC)NC1=O — IC50 (gag-pol integrase; 3′-end processing, inhibitor; HIV-1): 5800 ± 800 nM
NC(=O)[C@H](CO)NC(=O)[C@@H]1CCCN1C(=O)[C@H](Cc1ccc(O)cc1)NC(=O)CNC(=O)[C@H](Cc1ccccc1)NC(=O)[C@@H](CCCN=C=S)NC(=O)[C@@H](N)Cc1ccc(O)cc1 — IC50 (Delta-type opioid receptor (Oprd1, Mus musculus, UniProt P32300); radioligand binding; CHO cells; with: 0.15 nM [3H]DPDPE): 23.8 ± 2.1 nM
O=C(COc1ccc2c(c1O)C(=O)c1ccccc1C2=O)c1ccccc1 — IC50 (Gag-Pol polyprotein, RT DNA polymerase activity (gag-pol, Human immunodeficiency virus 1, UniProt P03366, K702N); enzyme activity, inhibitor): 35000 ± 4000 nM
CC[C@H](C)[C@H](N)C(=O)N[C@@H](CC(N)=O)C(=O)N[C@@H](CC(N)=O)C(=O)N[C@H](C(=O)N1C[C@@H](n2cc([C]34[CH]5[CH]6[CH]7[CH]3[Fe]6754389%10[CH]4[CH]3[CH]8[CH]9[CH]4%10)nn2)C[C@H]1C(=O)N[C@@H](Cc1ccc(O)cc1)C(N)=O)[C@@H](C)CC (stereo partly drawn) — IC50 (Envelope glycoprotein gp160, gp120 (env, Human immunodeficiency virus type 1 group M subtype B, UniProt P35961, F206A); binding to soluble CD4, inhibitor, competition SPR; gp120 F210A mutant): 4100 ± 300 nM
C=CCCC[C@H](NC(=O)[C@H](CC(C)C)NC(=O)[C@H](CCC(N)=O)NC(=O)[C@H](CCC(N)=O)NC(=O)[C@H](CCCC=C)NC(=O)[C@@H](NC(=O)[C@H](CCCNC(=N)N)NC(=O)[C@@H](NC(=O)[C@@H](NC(=O)[C@H](C)NC(=O)[C@H](CCC(=O)O)NC(C)=O)[C@@H](C)CC)[C@@H](C)CC)[C@@H](C)CC)C(=O)N[C@@H](Cc1ccccc1)C(=O)N[C@H](C(=O)N[C@@H](Cc1c[nH]cn1)C(=O)N[C@@H](Cc1ccccc1)C(=O)N[C@@H](CCCNC(=N)N)C(=O)N[C@H](C(=O)NCC(N)=O)[C@@H](C)CC)[C@@H](C)CC — IC50 (gag-pol integrase; strand transfer, inhibitor; HIV-1): 900 ± 60 nM
CC[C@H](C)[C@@H]1NC(=O)[C@@H](NC(=O)[C@H](CO)NC(=O)[C@@H](N)CCCNC(=N)N)CSSC[C@@H](C(=O)O)NC(=O)[C@H]([C@@H](C)O)NC(=O)CNC(=O)[C@@H]2CSSC[C@@H]3NC(=O)[C@H](CCC(N)=O)NC(=O)[C@H](Cc4ccccc4)NC(=O)[C@H](C)NC(=O)[C@H]([C@@H](C)O)NC(=O)[C@H](CSSC[C@H](NC(=O)[C@H](Cc4ccccc4)NC(=O)[C@H](CO)NC(=O)[C@H](CC(C)C)NC(=O)[C@H](CCCNC(=N)N)NC(=O)[C@H](Cc4ccc(O)cc4)NC(=O)[C@H](CCCCN)NC(=O)[C@H](CCSC)NC(=O)[C@H](CO)NC(=O)[C@H](Cc4cnc[nH]4)NC(=O)[C@H](CCCCN)NC3=O)C(=O)N[C@@H](CCCNC(=N)N)C(=O)N[C@@H](CCCCN)C(=O)N[C@@H]([C@@H](C)O)C(=O)N2)NC(=O)[C@H](CCCNC(=N)N)NC(=O)[C@H](CO)NC(=O)[C@H](CCCCN)NC(=O)[C@@H]2CCCN2C(=O)[C@H]([C@@H](C)CC)NC(=O)[C@H]([C@@H](C)O)NC(=O)[C@H](CC(=O)O)NC1=O — IC50 (Potassium voltage-gated channel subfamily A member 3 (Kcna3, Mus musculus, UniProt P16390); ion current, inhibitor, patch clamp): 0.009 nM
CC[C@H](C)[C@H](NC(=O)[C@H](C)NC(=O)[C@H](CO)NC(=O)[C@H](CC(C)C)NC(=O)[C@H](Cc1ccc(O)cc1)NC(=O)[C@@H](NC(=O)[C@H](CC(=O)O)NC(=O)[C@H](CO)NC(=O)[C@H](CCC(N)=O)NC(=O)[C@H](C)NC(=O)[C@H](CC(C)C)NC(=O)[C@H](Cc1c[nH]cn1)NC(=O)[C@H](CCC(N)=O)NC(=O)[C@H](CC(C)C)NC(=O)[C@H](C)NC(=O)[C@H](CC(=O)O)NC(=O)[C@H](CO)NC(=O)[C@H](CC(C)C)NC(=O)[C@H](CO)NC(=O)[C@H](CCCCN)NC(=O)[C@H](CC(N)=O)NC(=O)[C@@H](NC(=O)[C@H](C)NC(=O)[C@H](C)NC(=O)[C@H](CC(C)C)NC(=O)[C@H](CC(N)=O)NC(=O)[C@H](CCC(N)=O)NC(=O)[C@H](CO)NC(=O)[C@@H](NC(=O)[C@H](CC(=O)O)NC(=O)[C@H](C)NC(=O)[C@@H]1CCCN1C(=O)[C@H](CC(=O)O)NC(=O)[C@@H](NC(=O)[C@H](CO)NC(=O)[C@H](CC(C)C)NC(=O)[C@@H](NC(=O)[C@H](CCC(N)=O)NC(=O)[C@H](CO)NC(=O)[C@H](CO)NC(=O)[C@H](CCC(=O)O)NC(=O)[C@H](CC(C)C)NC(=O)[C@@H](N)CCCCN)[C@@H](C)CC)[C@@H](C)CC)[C@@H](C)CC)C(C)C)[C@@H](C)O)C(=O)O — IC50 (F fusion protein; cell-cell fusion, inhibitor, luciferase reporter; Vero plus BSR-T7 cells; 6 h, 37 °C, with: SV5 F and HN): 92 ± 10 nM
CC[C@H](C)[C@H](NC(=O)[C@H](C)NC(=O)[C@H](CCC(=O)O)NC(C)=O)C(=O)N[C@H](C(=O)N[C@H]1CCCC=CCCC[C@@H](C(=O)N[C@@H](CC(C)C)C(=O)N[C@@H](CC(C)C)C(=O)N[C@@H](Cc2ccccc2)C(=O)N[C@H](C(=O)N[C@@H](Cc2c[nH]cn2)C(=O)N[C@@H](Cc2ccccc2)C(=O)N[C@@H](CCCNC(=N)N)C(=O)N[C@H](C(=O)NCC(N)=O)[C@@H](C)CC)[C@@H](C)CC)NC(=O)[C@H](CCC(N)=O)NC(=O)[C@H](CC(C)C)NC(=O)[C@H]([C@@H](C)CC)NC1=O)[C@@H](C)CC — IC50 (gag-pol integrase; strand transfer, inhibitor; HIV-1): 54400 ± 9600 nM
O=C1c2ccc(O)c(O)c2C(=O)N1Cc1cccc(Cl)c1F — IC50 (Gag-Pol polyprotein, integrase (gag-pol, Human immunodeficiency virus 1, UniProt P12497, Y1290R); enzyme activity, inhibitor): 1600 ± 100 nM
C=CCCC[C@](C)(N)C(=O)N[C@@H](C)C(=O)N[C@@H](Cc1ccc(O)cc1)C(=O)N[C@@H](Cc1ccccc1)C(=O)N[C@@](C)(CCCC=C)C(=O)N[C@@H](CC(C)C)C(=O)N[C@@H](CCCCN)C(=O)N[C@@H](CC(C)C)C(=O)N[C@@H](C)C(=O)NCC(=O)N[C@@H](CCCNC(=N)N)C(=O)N[C@@H](Cc1c[nH]c2ccccc12)C(N)=O — IC50 (gag-pol integrase; integrase strand transfer, inhibitor): 15000 ± 5000 nM
CC[C@H](C)[C@H](NC(=O)[C@H](C)NC(=O)[C@H](CO)NC(=O)[C@H](CC(C)C)NC(=O)[C@H](Cc1ccc(O)cc1)NC(=O)[C@@H](NC(=O)[C@H](CC(=O)O)NC(=O)[C@H](CO)NC(=O)[C@H](CCC(N)=O)NC(=O)[C@H](C)NC(=O)[C@H](CC(C)C)NC(=O)[C@H](Cc1c[nH]cn1)NC(=O)[C@H](CCC(N)=O)NC(=O)[C@H](CC(C)C)NC(=O)[C@H](C)NC(=O)[C@H](CC(=O)O)NC(=O)[C@H](CO)NC(=O)[C@H](CC(C)C)NC(=O)[C@H](CO)NC(=O)[C@H](CCCCN)NC(=O)[C@H](CC(N)=O)NC(=O)[C@@H](NC(=O)[C@H](C)NC(=O)[C@H](C)NC(=O)[C@H](CC(C)C)NC(=O)[C@H](CC(N)=O)NC(=O)[C@H](CCC(N)=O)NC(=O)[C@H](CO)NC(=O)[C@@H](NC(=O)[C@H](CC(=O)O)NC(=O)[C@H](Cc1c[nH]c2ccccc12)NC(=O)[C@@H]1CCCN1C(=O)[C@H](CC(=O)O)NC(=O)[C@@H](NC(=O)[C@H](CO)NC(=O)[C@H](CC(C)C)NC(=O)[C@@H](NC(=O)[C@H](CCC(N)=O)NC(=O)[C@H](CO)NC(=O)[C@H](CO)NC(=O)[C@H](CCC(=O)O)NC(=O)[C@H](CC(C)C)NC(=O)[C@@H](N)CCCCN)[C@@H](C)CC)[C@@H](C)CC)[C@@H](C)CC)C(C)C)[C@@H](C)O)C(=O)O — IC50 (F fusion protein; cell-cell fusion, inhibitor, luciferase reporter; Vero plus BSR-T7 cells; 6 h, 37 °C, with: SV5 F and HN): 106 ± 8 nM

For quick reference, copied from above:
CC[C@H](C)[C@H](N)C(=O)N[C@@H](CC(N)=O)C(=O)N[C@@H](CC(N)=O)C(=O)N[C@H](C(=O)N1C[C@@H](n2cc([C]34[CH]5[CH]6[CH]7[CH]3[Fe]6754389%10[CH]4[CH]3[CH]8[CH]9[CH]4%10)nn2)C[C@H]1C(=O)N[C@@H](Cc1ccc(O)cc1)C(N)=O)[C@@H](C)CC (stereo partly drawn) — IC50 (Envelope glycoprotein gp160, gp120 (env, Human immunodeficiency virus type 1 group M subtype B, UniProt P35961, F206A); binding to soluble CD4, inhibitor, competition SPR; gp120 F210A mutant): 4100 ± 300 nM
C=CCCC[C@H](NC(=O)[C@H](CC(C)C)NC(=O)[C@H](CCC(N)=O)NC(=O)[C@H](CCC(N)=O)NC(=O)[C@H](CCCC=C)NC(=O)[C@@H](NC(=O)[C@H](CCCNC(=N)N)NC(=O)[C@@H](NC(=O)[C@@H](NC(=O)[C@H](C)NC(=O)[C@H](CCC(=O)O)NC(C)=O)[C@@H](C)CC)[C@@H](C)CC)[C@@H](C)CC)C(=O)N[C@@H](Cc1ccccc1)C(=O)N[C@H](C(=O)N[C@@H](Cc1c[nH]cn1)C(=O)N[C@@H](Cc1ccccc1)C(=O)N[C@@H](CCCNC(=N)N)C(=O)N[C@H](C(=O)NCC(N)=O)[C@@H](C)CC)[C@@H](C)CC — IC50 (gag-pol integrase; strand transfer, inhibitor; HIV-1): 900 ± 60 nM
